Measured values gathered from unrelated publications.
Protocols differ between the studies behind these lines. Numbers after ± are the reported error.
Target: Proteinase K (PROK, Engyodontium album, UniProt P06873)

`Cc1ccc(C[C@H](NC(=O)CN)C(=O)N[C@@H](CCCCN)C(=O)N[C@@H](CCCNC(=N)N)C(=O)N[C@H](CC(C)C)C(=O)N[C@H](C(=O)N[C@@H](CCC(N)=O)C(=O)N[C@@H](CCCNC(=N)N)C(=O)N[C@H](CC(C)C)C(=O)N[C@@H](CCCCN)C(=O)N[C@@H](CC(=O)O)C(=O)N[C@@H](Cc2c[nH]c3ccccc23)C(=O)N[C@H](CC(C)C)C(=O)N[C@@H](CCCNC(=N)N)C(=O)N[C@@H](CCCCN)C(=O)N[C@@H](CC(C)C)C(=O)N[C@H](C(N)=O)C(C)C)C(C)C)cc1` — result for proteolytic stability: “stable” (substrate, SDS-PAGE; 24 h, pH 7.4, 37 °C).
With `CC(C)C[C@H](NC(=O)[C@H](C)NC(=O)[C@H](CC(N)=O)NC(=O)[C@H](CCC(=O)O)NC(=O)[C@@H](N)CCCCN)C(=O)N[C@@H](CC(C)C)C(=O)N[C@@H](CCCNC(=N)N)C(=O)N[C@@H](Cc1ccc(O)cc1)C(=O)N[C@@H](CC(C)C)C(=O)N[C@@H](CC(C)C)C(=O)N[C@@H](CC(=O)O)C(=O)N[C@@H](CCCCN)C(=O)N[C@@H](CC(=O)O)C(N)=O` the half-life was 3 h (substrate, HPLC; 0.5 mM, pH 7.4, 37 °C, with: proteinase K 0.0005%).
With `CC(=O)N[C@H]1[C@@H](O[C@H](C)[C@H](NC(=O)[C@H](CC(=O)O)NC(=O)[C@@H]2CCCN2C(=O)[C@H](C)NC(=O)C[C@H](CO)NC(=O)[C@@H](NC(=O)[C@@H](NC(=O)CCNC(=O)[C@H](Cc2c[nH]cn2)NC(=O)[C@H](C)NC(=O)[C@@H](N)CS)C(C)C)[C@@H](C)O)C(=O)N[C@@H](CCCNC(=N)N)C(=O)N2CCC[C@H]2C(=O)N[C@@H](C)C(=O)N2CCC[C@H]2CC(=O)NCC(=O)N[C@@H](CO)C(=O)N[C@H](C(=O)N[C@@H](C)CC(=O)N2CCC[C@H]2C(=O)N2CCC[C@H]2C(N)=O)[C@@H](C)O)O[C@H](CO)[C@H](O)[C@@H]1O` the half-life was 1.97 h (UPLC; DPBS; 200 µM, with: proteinase K 5 µg/mL).
For `Cc1cn(CC(=O)N[C@@H](Cc2ccccc2)C(=O)N[C@@H](CCCNC(=N)N)C(=O)NCC(=O)N[C@@H](CC(=O)O)C(=O)O)c(=O)[nH]c1=O`, “time to complete hydrolysis” read 4 h (substrate; concentration not given).
Under “ln rate constant ratio”, `CC[C@H](C)[C@H](NC(=O)[C@H](CCC(=O)NCCOCCOCCOCCOC)NC(=O)[C@H](CC(N)=O)NC(=O)[C@H](Cc1ccccc1)NC(=O)[C@H](Cc1ccc(O)cc1)NC(=O)[C@H](Cc1ccc(O)cc1)NC(=O)[C@@H](NC(=O)[C@H](CCCNC(=N)N)NC(=O)CNC(=O)[C@H](CO)NC(=O)[C@H](CO)NC(=O)[C@H](CCCNC(=N)N)NC(=O)[C@H](CO)NC(=O)[C@H](CCSC)NC(=O)[C@H](CCCNC(=N)N)NC(=O)[C@H](CCCCN)NC(=O)[C@H](CCC(=O)O)NC(=O)[C@H](Cc1c[nH]c2ccccc12)NC(=O)CNC(=O)[C@@H]1CCCN1C(=O)[C@@H]1CCCN1C(=O)[C@H](CC(C)C)NC(=O)[C@@H](N)CCCCN)C(C)C)C(=O)N[C@H](C(=O)N[C@@H](CC(N)=O)C(=O)N[C@@H](C)C(=O)N[C@@H](CO)C(=O)N[C@@H](CCC(N)=O)C(=O)N[C@@H](Cc1ccccc1)C(=O)N[C@@H](CCC(=O)O)C(=O)N[C@@H](CCCNC(=N)N)C(=O)N1CCC[C@H]1C(=O)N[C@@H](CO)C(=O)NCC(=O)O)[C@@H](C)O` is recorded as 0.3 ± 0.3 (proteolysis, substrate, HPLC; room temperature; baseline: PEGylated over non-PEGylated variant, negative = more stable).
For `CC(C)C[C@H](NC(=O)[C@H](CCCCN)NC(=O)[C@H](CCCNC(=N)N)NC(=O)[C@@H](CC(C)C)NC(=O)[C@H](Cc1c[nH]c2ccccc12)NC(=O)[C@H](CC(=O)O)NC(=O)[C@H](CCCCN)NC(=O)[C@@H](CC(C)C)NC(=O)[C@H](CCCNC(=N)N)NC(=O)[C@H](CCC(N)=O)NC(=O)[C@@H](NC(=O)[C@@H](CC(C)C)NC(=O)[C@H](CCCNC(=N)N)NC(=O)[C@H](CCCCN)NC(=O)[C@H](Cc1c[nH]c2ccccc12)NC(=O)CN)C(C)C)C(=O)N[C@H](C(N)=O)C(C)C`, proteolytic stability read “stable” (substrate, SDS-PAGE; 24 h, pH 7.4, 37 °C).
`CC[C@H](C)[C@H](NC(=O)[C@H](Cc1c[nH]cn1)NC(=O)[C@H](CC(N)=O)NC(=O)[C@H](Cc1ccccc1)NC(=O)[C@H](Cc1ccc(O)cc1)NC(=O)[C@H](Cc1ccc(O)cc1)NC(=O)[C@@H](NC(=O)[C@H](CCCNC(=N)N)NC(=O)CNC(=O)[C@H](CO)NC(=O)[C@H](CO)NC(=O)[C@H](CCCNC(=N)N)NC(=O)[C@H](CO)NC(=O)[C@H](CCSC)NC(=O)[C@H](CCCNC(=N)N)NC(=O)[C@H](CCCCN)NC(=O)[C@H](CCC(=O)O)NC(=O)[C@H](Cc1c[nH]c2ccccc12)NC(=O)CNC(=O)[C@@H]1CCCN1C(=O)[C@@H]1CCCN1C(=O)[C@H](CC(C)C)NC(=O)[C@@H](N)CCCCN)C(C)C)C(=O)N[C@H](C(=O)N[C@@H](CC(N)=O)C(=O)N[C@@H](C)C(=O)N[C@@H](CCn1cc(COCCOCCOCCOC)nn1)C(=O)N[C@@H](CCC(N)=O)C(=O)N[C@@H](Cc1ccccc1)C(=O)N[C@@H](CCC(=O)O)C(=O)N[C@@H](CCCNC(=N)N)C(=O)N1CCC[C@H]1C(=O)N[C@@H](CO)C(=O)NCC(=O)O)[C@@H](C)O` — result for “ln rate constant ratio”: -0.2 ± 0.2 (proteolysis, substrate, HPLC; room temperature; baseline: PEGylated over non-PEGylated variant, negative = more stable).
`CC[C@H](C)[C@H](NC(=O)CNC(=O)[C@@H](NC(=O)[C@H](Cc1ccccc1)NC(=O)[C@H](Cc1ccc(O)cc1)NC(=O)[C@@H]1CCC(=O)NCC(=O)NCC(=O)N[C@@H](C)C(=O)NCC(=O)N[C@@H](Cc2cnc[nH]2)C(=O)N[C@@H](C(C)C)C(=O)N2CCC[C@H]2C(=O)N1)C(C)C)C(=O)NCC(=O)N[C@H](C(=O)N1CCC[C@H]1C(=O)N[C@H](C(=O)N[C@@H](CO)C(=O)N[C@@H](Cc1ccccc1)C(=O)N[C@@H](Cc1ccc(O)cc1)C(=O)NCC(=O)O)[C@@H](C)CC)[C@@H](C)O` has a remaining activity of 50% (concentration not given, 10 min, 60 °C, with: proteinase K up to 4 U/mL).
`CC(=O)N[C@H]1[C@@H](O[C@H](C)[C@H](NC(=O)[C@H](CC(=O)O)NC(=O)[C@@H]2CCCN2C(=O)[C@H](C)NC(=O)C[C@H](CO)NC(=O)[C@@H](NC(=O)[C@@H](NC(=O)CCNC(=O)[C@H](Cc2c[nH]cn2)NC(=O)[C@H](C)NC(=O)[C@@H](N)CS)C(C)C)[C@@H](C)O)C(=O)N[C@@H](CCCNC(=N)N)C(=O)N2CCC[C@H]2C(=O)N[C@@H](C)C(=O)N2CCC[C@H]2C(=O)NCCC(=O)N[C@@H](CO)C(=O)N[C@H](C(=O)N[C@@H](C)C(=O)N2CCC[C@H]2CC(=O)N2CCC[C@H]2C(N)=O)[C@@H](C)O)O[C@H](CO)[C@H](O)[C@@H]1O` gave a half-life of 2.07 h (UPLC; DPBS; 200 µM, with: proteinase K 5 µg/mL).
Under “ln rate constant ratio”, `CC[C@H](C)[C@H](NC(=O)[C@H](Cc1c[nH]cn1)NC(=O)[C@H](CC(N)=O)NC(=O)[C@H](Cc1ccccc1)NC(=O)[C@H](Cc1ccc(O)cc1)NC(=O)[C@H](Cc1ccc(O)cc1)NC(=O)[C@@H](NC(=O)[C@H](CCCNC(=N)N)NC(=O)CNC(=O)[C@H](CO)NC(=O)[C@H](CO)NC(=O)[C@H](CCCNC(=N)N)NC(=O)[C@H](CO)NC(=O)[C@H](CCSC)NC(=O)[C@H](CCCNC(=N)N)NC(=O)[C@H](CCCCN)NC(=O)[C@H](CCC(=O)O)NC(=O)[C@H](Cc1c[nH]c2ccccc12)NC(=O)CNC(=O)[C@@H]1CCCN1C(=O)[C@@H]1CCCN1C(=O)[C@H](CC(C)C)NC(=O)[C@@H](N)CCCCN)C(C)C)C(=O)N[C@@H](CCn1cc(COCCOCCOCCOC)nn1)C(=O)N[C@@H](CC(N)=O)C(=O)N[C@@H](C)C(=O)N[C@@H](CO)C(=O)N[C@@H](CCC(N)=O)C(=O)N[C@@H](Cc1ccccc1)C(=O)N[C@@H](CCC(=O)O)C(=O)N[C@@H](CCCNC(=N)N)C(=O)N1CCC[C@H]1C(=O)N[C@@H](CO)C(=O)NCC(=O)O` is recorded as -0.3 ± 0.3 (proteolysis, substrate, HPLC; room temperature; baseline: PEGylated over non-PEGylated variant, negative = more stable).

For quick reference, copied from above:
For `CC(C)C[C@H](NC(=O)[C@H](CCCCN)NC(=O)[C@H](CCCNC(=N)N)NC(=O)[C@@H](CC(C)C)NC(=O)[C@H](Cc1c[nH]c2ccccc12)NC(=O)[C@H](CC(=O)O)NC(=O)[C@H](CCCCN)NC(=O)[C@@H](CC(C)C)NC(=O)[C@H](CCCNC(=N)N)NC(=O)[C@H](CCC(N)=O)NC(=O)[C@@H](NC(=O)[C@@H](CC(C)C)NC(=O)[C@H](CCCNC(=N)N)NC(=O)[C@H](CCCCN)NC(=O)[C@H](Cc1c[nH]c2ccccc12)NC(=O)CN)C(C)C)C(=O)N[C@H](C(N)=O)C(C)C`, proteolytic stability read “stable” (substrate, SDS-PAGE; 24 h, pH 7.4, 37 °C).
